# Results pooled from the literature.
# Compare with care: the assays were run in different laboratories.
Compound,organism,test,test system,conditions,MIC
OB(O)c1cnn(-c2cc(Cl)ncn2)c1,Enterobacter cloacae,bacterial growth,AmpC overproducer clinical isolate,without cefotaxime,1020 µg/mL
CC[C@H](C)[C@H](NC(=O)[C@H](CC(=O)O)NC(=O)[C@H](C)NC(=O)[C@@H](N)CO)C(=O)N[C@@H](CO)C(=O)N[C@@H](CC(C)C)C(=O)N[C@@H](CCC(=O)O)C(=O)N[C@@H](CCCNC(=N)N)C(=O)N[C@@H](CC(C)C)C(=O)O,Staphylococcus haemolyticus,,,,200 µg/mL
O[C@]12C=C(c3nccc4c3[nH]c3ccccc34)[C@@H]3CCN(CCCC/C=C\CC1)C[C@@]31C[C@@H]3/C=C\CCCCN3[C@H]12,Mycobacterium intracellulare,Alamar Blue,ATCC 23068,,0.63 µg/mL
N=C(N)NCCC[C@H](NC(=O)[C@H](CCCNC(=N)N)NC(=O)[C@H](Cc1ccccc1)NC(=O)[C@H](CO)NC(=O)[C@H](Cc1ccccc1)NC(=O)[C@H](Cc1c[nH]c2ccccc12)NC(=O)[C@H](Cc1ccccc1)NC(=O)[C@H](CO)NC(=O)[C@H](Cc1ccccc1)NC(=O)[C@H](CCCNC(=N)N)NC(=O)[C@@H](N)CCCNC(=N)N)C(N)=O,Lactiplantibacillus plantarum,,"7469, probiotic strain","24 h, 37 °C, tested up to 128 µM",128 µM
[O-][N+]1=C(c2ccccc2)C2=NCCCN2c2ncccc21,Prevotella spp.,,,,0.06 to 0.125 µg/mL
CC(=O)N[C@@H](CC(C)C)C(=O)N[C@H]1CSSC[C@@H](C(=O)N2CCC[C@H]2C(N)=O)NC(=O)[C@H]([C@@H](C)O)NC(=O)[C@H](C(C)C)NC(=O)[C@H]([C@@H](C)O)NC(=O)[C@H](CCCCN)NC(=O)[C@H](CC(C)C)NC(=O)[C@H](Cc2ccccc2)NC(=O)[C@H](Cc2ccc(O)cc2)NC(=O)[C@H](CC(C)C)NC(=O)[C@H](CCCCN)NC(=O)[C@H](Cc2ccccc2)NC(=O)[C@H](CCCNC(=N)N)NC(=O)[C@H](CCC(N)=O)NC(=O)[C@H](CC(C)C)NC(=O)[C@H](CCCCN)NC(=O)[C@@H]2CCCN2C(=O)[C@H](CCCCN)NC(=O)[C@H](C(C)C)NC(=O)[C@H](CC(N)=O)NC(=O)[C@H](Cc2ccc(O)cc2)NC(=O)[C@H]([C@@H](C)O)NC1=O,Pseudomonas fluorescens,broth dilution,CGMCC strain,24 h,5 to 10 µM
CC[C@H](C)[C@@H]1NC(=O)[C@H](CC(C)C)NC(=O)[C@@H](NC(=O)[C@H](CCCNC(=N)N)NC(=O)[C@@H](NC(=O)CNC(=O)[C@@H]2CCCN2C(=O)[C@@H]2CCC(=O)NCC(=O)N[C@@H](CO)C(=O)N[C@@H](CCCNC(=N)N)C(=O)NCC(=O)N[C@@H](Cc3c[nH]c4ccccc34)C(=O)NCC(=O)N[C@@H](Cc3ccccc3)C(=O)N2)C(C)C)CSSC[C@@H](C(=O)N[C@@H](CC(=O)O)C(=O)O)NC(=O)[C@H](Cc2c[nH]c3ccccc23)NC1=O,Streptococcus pyogenes,broth microdilution,sensitive clinical isolate,"overnight, 37 °C",> 128 µg/mL
C[N+]1=C2C(c3ccc([N+](=O)[O-])cc3)=[N+]([O-])c3ccccc3N2CCC1,Prevotella spp.,,,,0.06 to 2 µg/mL
CCCCCCCCCCCCCC(=O)N[C@H]1C(=O)N[C@@H](CN)C(=O)N[C@@H](CO)C(=O)N[C@@H](Cc2ccc(O)cc2)C(=O)O[C@H]1C,Staphylococcus aureus,,SH1000,"with: phosphatidylcholine, molar ratio 2",4 µg/mL
CC[C@H](C)[C@H](NC(=O)[C@H](CCCNC(=N)N)NC(=O)[C@H](CO)NC(=O)[C@H](Cc1ccc(O)cc1)NC(=O)[C@@H](NC(=O)[C@@H](NC(=O)[C@H](C)NC(=O)CNC(=O)[C@H](CCCCN)NC(=O)[C@H](CCCCN)NC(=O)CCNC(=O)CCCCCNC(=O)[C@H](CCCNC(=N)N)NC(=O)CCCCCNC(=O)[C@H](CCCNC(=N)N)NC(=O)[C@H](CCCNC(=N)N)NC(=O)CCCCCNC(=O)[C@H](CCCNC(=N)N)NC(=O)[C@H](CCCNC(=N)N)NC(=O)CCCCCNC(=O)[C@H](CCCNC(=N)N)NC(=O)[C@H](CCCNC(=N)N)NC(=O)CCCCCNC(=O)[C@@H](N)CCCNC(=N)N)C(C)C)[C@@H](C)O)C(=O)N[C@@H](CO)C(=O)NCC(=O)N[C@@H](CCC(N)=O)C(=O)N[C@@H](Cc1ccc(O)cc1)C(=O)N[C@@H](CCCCN)C(=O)O,Escherichia coli,broth microdilution,"BAA 41, resistant, Mueller-Hinton broth",,12 µM
CC(C)CCCCCCCCC/C=C/C(=O)N[C@@H](CC(=O)O)C(=O)N[C@H]1CNC(=O)[C@@H]2CCCN2C(=O)[C@H](C(C)C)NC(=O)[C@@H](CN)NC(=O)CNC(=O)[C@H](CC(=O)O)NC(=O)CNC(=O)[C@H](CC(=O)O)NC(=O)[C@H](CC(=O)O)NC(=O)[C@H]2CCCCN2C1=O,Staphylococcus aureus,broth microdilution,"MRSA USA300, Mueller-Hinton broth, Mg2+ 10 mg/L","16 h, 37 °C, with: Ca2+ 2.5 mM",4 µg/mL
CC[C@H](C)[C@H](NC(=O)[C@H](C)NC(=O)CNC(=O)[C@H](C)NC(=O)[C@H](CCCCN)NC(=O)[C@H](CO)NC(=O)[C@H](C)NC(=O)[C@H](CCSC)NC(=O)CN)C(=O)N[C@@H](C)C(=O)NCC(=O)N[C@@H](CCCCN)C(=O)N[C@H](C(=O)N[C@@H](C)C(=O)N[C@@H](CCCCN)C(=O)N[C@H](C(=O)N[C@@H](C)C(=O)N[C@@H](CC(C)C)C(=O)N[C@@H](CCCCN)C(=O)N[C@@H](C)C(=O)N[C@@H](CC(C)C)C(N)=O)C(C)C)[C@@H](C)CC,Escherichia coli,,"3538, wild type, minimal salts medium","18 h, 37 °C",20 µg/mL
[O-][N+]1=C(c2ccc(Cl)cc2)C2=NCCCCN2c2ccccc21,Prevotella spp.,,,,0.125 to 0.5 µg/mL
Cc1c(CN(C)C(=O)/C=C/c2cnc3c(c2)CC(N)C(=O)N3)oc2ccccc12 (stereo not drawn),Escherichia coli,,MG1655 FabI G148S resistant,,> 64 µg/mL
CC(=O)N[C@@H](CC(C)C)C(=O)N[C@H]1CSSC[C@@H](C(=O)N2CCC[C@H]2C(N)=O)NC(=O)[C@H]([C@@H](C)O)NC(=O)[C@H](C(C)C)NC(=O)[C@H]([C@@H](C)O)NC(=O)CNC(=O)[C@H](CC(C)C)NC(=O)[C@H](Cc2ccccc2)NC(=O)[C@H](Cc2ccc(O)cc2)NC(=O)[C@H](CC(C)C)NC(=O)[C@H](CCCCN)NC(=O)[C@H](Cc2ccccc2)NC(=O)[C@H](CCCNC(=N)N)NC(=O)[C@H](CCC(N)=O)NC(=O)[C@H](CC(C)C)NC(=O)[C@H](CCCCN)NC(=O)[C@@H]2CCCN2C(=O)[C@H](CCCCN)NC(=O)[C@H](C(C)C)NC(=O)[C@H](CC(N)=O)NC(=O)[C@H](Cc2ccc(O)cc2)NC(=O)[C@H]([C@@H](C)O)NC1=O,Pseudomonas fluorescens,broth dilution,CGMCC strain,24 h,5 to 10 µM

# Repeated from above:
Compound,organism,test,test system,conditions,MIC
CC[C@H](C)[C@H](NC(=O)[C@H](CC(=O)O)NC(=O)[C@H](C)NC(=O)[C@@H](N)CO)C(=O)N[C@@H](CO)C(=O)N[C@@H](CC(C)C)C(=O)N[C@@H](CCC(=O)O)C(=O)N[C@@H](CCCNC(=N)N)C(=O)N[C@@H](CC(C)C)C(=O)O,Staphylococcus haemolyticus,,,,200 µg/mL
O[C@]12C=C(c3nccc4c3[nH]c3ccccc34)[C@@H]3CCN(CCCC/C=C\CC1)C[C@@]31C[C@@H]3/C=C\CCCCN3[C@H]12,Mycobacterium intracellulare,Alamar Blue,ATCC 23068,,0.63 µg/mL
